Results gathered from unrelated publications.
Lines come from different studies, so protocols differ. ± marks the error that the study gave.
Sequence of UniProt P47746 (whole entry, looked up): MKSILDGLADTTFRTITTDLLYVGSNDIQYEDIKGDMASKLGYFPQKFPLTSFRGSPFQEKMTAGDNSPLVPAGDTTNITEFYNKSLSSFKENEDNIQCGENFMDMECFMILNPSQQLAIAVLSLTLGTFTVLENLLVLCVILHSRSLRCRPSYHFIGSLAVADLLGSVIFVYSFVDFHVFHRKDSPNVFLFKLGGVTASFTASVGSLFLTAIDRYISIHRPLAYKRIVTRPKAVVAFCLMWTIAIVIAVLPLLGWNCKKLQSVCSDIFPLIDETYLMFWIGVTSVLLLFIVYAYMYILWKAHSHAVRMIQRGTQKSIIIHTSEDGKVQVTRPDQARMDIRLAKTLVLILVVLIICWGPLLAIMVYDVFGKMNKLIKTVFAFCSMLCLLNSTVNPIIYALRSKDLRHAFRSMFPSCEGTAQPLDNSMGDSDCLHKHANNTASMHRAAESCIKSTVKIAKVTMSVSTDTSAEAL
Sequence of UniProt O88457 (whole entry, looked up): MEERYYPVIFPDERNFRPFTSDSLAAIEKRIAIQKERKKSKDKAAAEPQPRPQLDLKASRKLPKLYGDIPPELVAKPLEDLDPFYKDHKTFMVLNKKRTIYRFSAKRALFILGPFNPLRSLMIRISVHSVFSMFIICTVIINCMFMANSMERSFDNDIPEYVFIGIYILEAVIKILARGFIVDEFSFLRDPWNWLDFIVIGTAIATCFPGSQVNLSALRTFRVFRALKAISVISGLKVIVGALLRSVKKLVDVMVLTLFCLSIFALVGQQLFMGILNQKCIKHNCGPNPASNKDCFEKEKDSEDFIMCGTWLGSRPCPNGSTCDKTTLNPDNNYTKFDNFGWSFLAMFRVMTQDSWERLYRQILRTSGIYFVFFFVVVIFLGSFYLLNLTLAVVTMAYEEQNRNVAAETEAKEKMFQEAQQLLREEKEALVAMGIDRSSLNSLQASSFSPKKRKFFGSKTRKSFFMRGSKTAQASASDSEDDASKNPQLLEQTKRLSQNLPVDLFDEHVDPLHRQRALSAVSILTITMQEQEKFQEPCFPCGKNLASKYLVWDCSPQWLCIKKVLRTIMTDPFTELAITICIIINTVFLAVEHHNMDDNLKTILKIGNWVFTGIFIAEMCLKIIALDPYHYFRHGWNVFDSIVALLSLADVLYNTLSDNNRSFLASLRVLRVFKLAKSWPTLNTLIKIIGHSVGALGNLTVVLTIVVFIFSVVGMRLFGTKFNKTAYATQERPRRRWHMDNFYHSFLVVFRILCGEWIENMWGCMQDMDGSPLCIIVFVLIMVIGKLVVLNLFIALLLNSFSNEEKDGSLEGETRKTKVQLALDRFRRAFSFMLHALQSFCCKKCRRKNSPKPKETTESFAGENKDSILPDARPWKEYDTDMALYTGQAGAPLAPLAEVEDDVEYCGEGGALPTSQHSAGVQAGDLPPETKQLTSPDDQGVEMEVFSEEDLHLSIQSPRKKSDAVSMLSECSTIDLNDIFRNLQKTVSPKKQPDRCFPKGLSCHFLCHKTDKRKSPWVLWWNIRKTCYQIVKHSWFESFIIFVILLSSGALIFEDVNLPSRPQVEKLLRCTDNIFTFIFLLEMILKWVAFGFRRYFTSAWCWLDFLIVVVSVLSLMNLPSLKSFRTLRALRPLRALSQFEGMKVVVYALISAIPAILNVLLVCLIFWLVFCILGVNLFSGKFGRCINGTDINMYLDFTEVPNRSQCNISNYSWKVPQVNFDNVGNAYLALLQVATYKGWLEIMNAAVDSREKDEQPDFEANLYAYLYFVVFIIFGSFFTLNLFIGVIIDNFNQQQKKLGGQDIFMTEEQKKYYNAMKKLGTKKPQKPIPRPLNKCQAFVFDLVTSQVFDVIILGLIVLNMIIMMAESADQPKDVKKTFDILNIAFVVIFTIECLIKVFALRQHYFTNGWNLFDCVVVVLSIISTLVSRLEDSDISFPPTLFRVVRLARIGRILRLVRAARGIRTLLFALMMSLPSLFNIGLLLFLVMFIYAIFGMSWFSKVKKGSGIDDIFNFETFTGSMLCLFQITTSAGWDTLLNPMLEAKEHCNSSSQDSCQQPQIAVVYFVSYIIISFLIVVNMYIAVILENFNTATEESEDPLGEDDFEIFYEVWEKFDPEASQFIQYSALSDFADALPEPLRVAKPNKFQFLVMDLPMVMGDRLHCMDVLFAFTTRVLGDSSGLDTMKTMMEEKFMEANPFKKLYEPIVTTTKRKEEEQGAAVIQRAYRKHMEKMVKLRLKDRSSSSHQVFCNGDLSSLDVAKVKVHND
Sequence of UniProt P9WGR1 (whole entry, looked up): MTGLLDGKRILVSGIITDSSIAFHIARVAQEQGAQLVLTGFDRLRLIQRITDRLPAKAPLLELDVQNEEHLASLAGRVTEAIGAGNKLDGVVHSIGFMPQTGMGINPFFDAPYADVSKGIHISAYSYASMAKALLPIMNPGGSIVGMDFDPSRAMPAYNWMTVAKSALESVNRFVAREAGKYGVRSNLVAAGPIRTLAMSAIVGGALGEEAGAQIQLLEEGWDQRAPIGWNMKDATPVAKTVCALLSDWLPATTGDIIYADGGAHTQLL
Sequence of UniProt P25123 (whole entry, unmodified, looked up): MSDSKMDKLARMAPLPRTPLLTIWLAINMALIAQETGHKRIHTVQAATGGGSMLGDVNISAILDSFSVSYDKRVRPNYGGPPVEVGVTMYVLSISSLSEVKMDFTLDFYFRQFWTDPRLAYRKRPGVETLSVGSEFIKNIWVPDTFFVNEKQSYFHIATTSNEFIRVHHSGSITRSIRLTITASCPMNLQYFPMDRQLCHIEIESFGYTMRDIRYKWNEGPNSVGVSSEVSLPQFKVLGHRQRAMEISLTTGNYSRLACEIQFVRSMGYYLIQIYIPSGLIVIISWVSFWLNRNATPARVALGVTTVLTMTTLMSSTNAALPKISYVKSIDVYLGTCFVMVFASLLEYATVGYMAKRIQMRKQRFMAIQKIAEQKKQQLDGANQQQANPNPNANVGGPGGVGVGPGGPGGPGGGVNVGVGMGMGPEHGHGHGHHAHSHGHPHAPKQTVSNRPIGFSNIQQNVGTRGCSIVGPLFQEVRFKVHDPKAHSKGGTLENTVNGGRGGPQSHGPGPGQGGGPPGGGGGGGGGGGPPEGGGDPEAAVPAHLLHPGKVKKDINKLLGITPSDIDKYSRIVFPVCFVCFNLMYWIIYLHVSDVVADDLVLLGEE
Sequence of UniProt Q8NER1 (whole entry, unmodified, looked up): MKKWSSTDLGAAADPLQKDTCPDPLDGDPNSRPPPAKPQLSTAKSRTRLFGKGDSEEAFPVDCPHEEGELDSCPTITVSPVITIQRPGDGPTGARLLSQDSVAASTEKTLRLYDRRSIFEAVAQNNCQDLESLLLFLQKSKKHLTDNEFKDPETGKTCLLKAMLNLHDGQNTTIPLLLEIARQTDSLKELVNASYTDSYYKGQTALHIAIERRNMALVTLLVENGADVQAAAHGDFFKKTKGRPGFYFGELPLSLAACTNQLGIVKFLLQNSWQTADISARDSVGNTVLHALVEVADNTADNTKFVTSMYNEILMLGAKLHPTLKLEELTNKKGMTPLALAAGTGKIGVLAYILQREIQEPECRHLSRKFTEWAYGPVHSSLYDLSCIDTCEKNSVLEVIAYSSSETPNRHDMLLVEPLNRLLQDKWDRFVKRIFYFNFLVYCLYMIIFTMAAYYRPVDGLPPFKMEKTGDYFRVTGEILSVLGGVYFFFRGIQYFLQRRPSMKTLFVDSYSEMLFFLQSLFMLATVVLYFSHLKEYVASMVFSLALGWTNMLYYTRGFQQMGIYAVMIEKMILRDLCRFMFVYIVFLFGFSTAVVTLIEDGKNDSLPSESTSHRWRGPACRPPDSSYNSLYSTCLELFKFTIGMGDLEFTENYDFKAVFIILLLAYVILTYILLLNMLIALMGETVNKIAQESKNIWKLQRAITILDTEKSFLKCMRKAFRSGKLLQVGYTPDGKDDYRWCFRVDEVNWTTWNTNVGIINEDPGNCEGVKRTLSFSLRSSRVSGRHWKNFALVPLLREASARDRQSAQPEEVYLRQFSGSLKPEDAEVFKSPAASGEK

`CCOC(=O)C1C(OC(c2ccc(Cl)cc2)c2ccc(Cl)cc2)CC2CCC1N2C` (single isomer, unassigned) — result for Ki: “inactive” (ATP-binding cassette sub-family C member 8 (ABCC8, Cricetus cricetus, UniProt Q09427); binding, radioligand displacement; inactive if below 75% at 10000 nM, together with: [3H]glyburide).
For `CCCCCCc1ccc(Oc2ccccc2Br)c(O)c1`, the residence time was 9 ± 1 min (Enoyl-[acyl-carrier-protein] reductase [NADH] (inhA, Mycobacterium tuberculosis, UniProt P9WGR1); inhibitor, progress curve global fit; 20 °C).
The koff of `CC[C@H](C)[C@H](N)C(=O)N[C@H](C(=O)N[C@@H](CO)C(=O)N[C@H](C(=O)N[C@H](C(=O)NCC(=O)N[C@@H](CC(=O)O)C(=O)N[C@@H](CC(C)C)C(=O)N[C@H](C(=O)N[C@@H](CCCCN)C(=O)N[C@@H](Cc1c[nH]c2ccccc12)C(=O)N[C@H](C(=O)N[C@H](C(=O)N[C@@H](CC(=O)O)C(=O)N[C@H](C(=O)N[C@H](C(=O)N[C@@H](CC(N)=O)C(=O)N[C@@H](CCCCN)C(=O)N[C@@H](Cc1ccccc1)C(=O)N[C@H](C(=O)N[C@@H](CCCCN)C(=O)N[C@@H](CCCCN)C(=O)O)[C@@H](C)O)C(C)C)[C@@H](C)O)[C@@H](C)CC)[C@@H](C)CC)C(C)C)[C@@H](C)CC)[C@@H](C)O)[C@@H](C)CC` is reported as 0.033 s^–1 (lipid vesicle dissociation; POPC vesicles; pH 7.5).
`C=C(C)C1C2OC(=O)C1C1(O)CC3OC34C(=O)OC2C14C` (centres unmarked) — result for “IC50 fold increase”: 5000 fold (Rdl (Drosophila melanogaster, UniProt P25123, T305V); GABA-induced current, antagonist, two-electrode voltage clamp; Xenopus oocytes; concentration not given; relative to: mutant over wild type).
`CC[C@H](C)[C@H](NC(=O)CN)C(=O)N[C@@H](CC(C)C)C(=O)N[C@@H](CCCCN)C(=O)N[C@@H](Cc1ccccc1)C(=O)N[C@@H](CC(C)C)C(=O)N[C@@H](CCC(=O)O)C(=O)N[C@@H](CO)C(=O)N[C@@H](C)C(=O)N[C@@H](CCCCN)C(=O)N[C@@H](CCCCN)C(=O)N[C@@H](Cc1c[nH]c2ccccc12)C(=O)N[C@@H](CC(C)C)C(=O)N[C@@H](CCC(=O)O)C(=O)N[C@@H](C)C(=O)N[C@@H](Cc1ccccc1)C(=O)N[C@@H](CC(C)C)C(=O)N[C@@H](C)C(=O)N[C@@H](CCC(=O)O)C(=O)N[C@H](C(=O)N[C@@H](CCSC)C(=O)N[C@@H](CC(N)=O)C(=O)N[C@@H](CO)C(=O)O)[C@@H](C)CC` gave a koff of 13 s⁻¹ (membrane binding, stopped-flow FRET; POPC vesicles; pH 7.5, room temperature).
`CC[C@H](C)[C@H](N)C(=O)N[C@H](C(=O)N[C@@H](CO)C(=O)N[C@H](C(=O)N[C@H](C(=O)NCC(=O)N[C@@H](CC(=O)O)C(=O)N[C@@H](Cc1c[nH]c2ccccc12)C(=O)N[C@H](C(=O)N[C@@H](CCCCN)C(=O)N[C@@H](CC(C)C)C(=O)N[C@H](C(=O)N[C@H](C(=O)N[C@@H](CC(=O)O)C(=O)N[C@H](C(=O)N[C@H](C(=O)N[C@@H](CC(N)=O)C(=O)N[C@@H](CCCCN)C(=O)N[C@@H](Cc1ccccc1)C(=O)N[C@H](C(=O)N[C@@H](CCCCN)C(=O)N[C@@H](CCCCN)C(=O)O)[C@@H](C)O)C(C)C)[C@@H](C)O)[C@@H](C)CC)[C@@H](C)CC)C(C)C)[C@@H](C)CC)[C@@H](C)O)[C@@H](C)CC` gave a koff of 2.2 s^–1 (lipid vesicle dissociation; POPC vesicles; pH 7.5).
`CC(C)c1nc2cc(O)ccc2c(=O)n1-c1ccc(C#N)cc1` gave a potency shift of 4.5 fold (Transient receptor potential cation channel subfamily V member 1 (TRPV1, Homo sapiens, UniProt Q8NER1, E570Q); calcium influx, FLIPR; relative to: mutant over wild type).
`O=C1C(=Cc2cn(Cc3ccc(F)cc3)c3ccccc23)N2CCC1CC2`: “adenylyl cyclase activity” “inhibited” (Cannabinoid receptor 1 (Cnr1, Mus musculus, UniProt P47746); Neuro2A; 1 µM, 5 min, together with: CB1 antagonist O-2050 1 µM).
`CC[C@H](C)[C@H](NC(=O)[C@H](Cc1c[nH]c2ccccc12)NC(=O)[C@H](CCCCN)NC(=O)[C@@H](NC(=O)[C@H](CC(C)C)NC(=O)[C@H](CCCCN)NC(=O)CNC(=O)[C@@H](NC(=O)[C@@H](NC(=O)[C@H](CO)NC(=O)[C@@H](NC(=O)[C@@H](NC(=O)[C@H](CCCCN)NC(=O)[C@H](CCC(N)=O)NC(=O)[C@H](C)NC(=O)[C@H](CCSC)NC=O)[C@@H](C)CC)[C@@H](C)CC)[C@@H](C)O)[C@@H](C)CC)C(C)C)C(=O)N[C@H](C(=O)N[C@@H](CCCCN)C(=O)N[C@H](C(=O)N[C@H](C(=O)N[C@@H](CC(N)=O)C(=O)N[C@@H](CCCCN)C(=O)N[C@@H](Cc1ccccc1)C(=O)N[C@H](C(=O)N[C@@H](CCCCN)C(=O)N[C@@H](CCCCN)C(=O)O)[C@@H](C)O)C(C)C)[C@@H](C)O)[C@@H](C)CC` (racemic) gave a koff of 10 s⁻¹ (membrane binding, stopped-flow FRET; POPC vesicles; pH 7.5, room temperature).
Under “V1/2 of activation”, `CCN(Cc1ccccc1)C(=O)CCc1nc(CN2CCN(C(=O)Cc3ccc(OC)c(OC)c3)CC2)no1` is recorded as -39.5 ± 1.24 mV (Sodium channel protein type 11 subunit alpha (Scn11a, Rattus norvegicus, UniProt O88457); whole-cell patch clamp; rat DRG neurons; 3 µM).
`CC[C@H](C)[C@H](N)C(=O)N[C@H](C(=O)NCC(=O)N[C@H](C(=O)N[C@H](C(=O)N[C@@H](CC(=O)O)C(=O)N[C@@H](CO)C(=O)N[C@@H](CC(C)C)C(=O)N[C@H](C(=O)N[C@@H](CCCCN)C(=O)N[C@@H](Cc1c[nH]c2ccccc12)C(=O)N[C@H](C(=O)N[C@H](C(=O)N[C@@H](CC(=O)O)C(=O)N[C@H](C(=O)N[C@H](C(=O)N[C@@H](CC(N)=O)C(=O)N[C@@H](CCCCN)C(=O)N[C@@H](Cc1ccccc1)C(=O)N[C@H](C(=O)N[C@@H](CCCCN)C(=O)N[C@@H](CCCCN)C(=O)O)[C@@H](C)O)C(C)C)[C@@H](C)O)[C@@H](C)CC)[C@@H](C)CC)C(C)C)[C@@H](C)CC)[C@@H](C)O)[C@@H](C)CC` gave a kon of 12000 M^–1 s^–1 (lipid vesicle binding, stopped-flow FRET; POPC vesicles; pH 7.5).
`CC(C)C[C@H](NC(=O)[C@H](Cc1ccccc1)NC(=O)CNC(=O)CNC(=O)[C@@H](N)Cc1ccc(O)cc1)C(=O)O` gave a reversal potential of -110 ± 1.9 mV (K+ current, agonist, photo-uncaging; rat locus coeruleus neurons; large somatic currents).
The kon of `CC[C@H](C)[C@H](NC(=O)[C@H](CCCCN)NC(=O)CNC(=O)[C@@H](NC(=O)[C@@H](NC(=O)[C@H](CC(N)=O)NC(=O)[C@H](CC(=O)O)NC(=O)[C@@H](N)CC(=O)O)C(C)C)[C@@H](C)CC)C(=O)N[C@@H](Cc1c[nH]c2ccccc12)C(=O)N[C@@H](CO)C(=O)N[C@@H](CCCCN)C(=O)N[C@@H](CC(C)C)C(=O)N[C@H](C(=O)N[C@H](C(=O)N[C@H](C(=O)N[C@H](C(=O)N[C@H](C(=O)N[C@@H](CCCCN)C(=O)N[C@H](C(=O)N[C@@H](Cc1ccccc1)C(=O)N[C@H](C(=O)N[C@@H](CCCCN)C(=O)O)[C@@H](C)O)[C@@H](C)CC)[C@@H](C)O)[C@@H](C)CC)C(C)C)[C@@H](C)O)[C@@H](C)CC` is reported as 11000 M^–1 s^–1 (lipid vesicle binding, stopped-flow FRET; POPC vesicles; pH 7.5).
`O=C(N=P12CN3CN(CN(C3)C1)C2)c1ccccn1.[Cl][Pd][Cl]` has an affinity ratio of ~40 (Albumin (ALB, Homo sapiens, UniProt P02768); binding, isothermal titration calorimetry; relative to: K1 over K2).

For quick reference, copied from above:
`CC[C@H](C)[C@H](NC(=O)CN)C(=O)N[C@@H](CC(C)C)C(=O)N[C@@H](CCCCN)C(=O)N[C@@H](Cc1ccccc1)C(=O)N[C@@H](CC(C)C)C(=O)N[C@@H](CCC(=O)O)C(=O)N[C@@H](CO)C(=O)N[C@@H](C)C(=O)N[C@@H](CCCCN)C(=O)N[C@@H](CCCCN)C(=O)N[C@@H](Cc1c[nH]c2ccccc12)C(=O)N[C@@H](CC(C)C)C(=O)N[C@@H](CCC(=O)O)C(=O)N[C@@H](C)C(=O)N[C@@H](Cc1ccccc1)C(=O)N[C@@H](CC(C)C)C(=O)N[C@@H](C)C(=O)N[C@@H](CCC(=O)O)C(=O)N[C@H](C(=O)N[C@@H](CCSC)C(=O)N[C@@H](CC(N)=O)C(=O)N[C@@H](CO)C(=O)O)[C@@H](C)CC` gave a koff of 13 s⁻¹ (membrane binding, stopped-flow FRET; POPC vesicles; pH 7.5, room temperature).
`CC[C@H](C)[C@H](N)C(=O)N[C@H](C(=O)N[C@@H](CO)C(=O)N[C@H](C(=O)N[C@H](C(=O)NCC(=O)N[C@@H](CC(=O)O)C(=O)N[C@@H](Cc1c[nH]c2ccccc12)C(=O)N[C@H](C(=O)N[C@@H](CCCCN)C(=O)N[C@@H](CC(C)C)C(=O)N[C@H](C(=O)N[C@H](C(=O)N[C@@H](CC(=O)O)C(=O)N[C@H](C(=O)N[C@H](C(=O)N[C@@H](CC(N)=O)C(=O)N[C@@H](CCCCN)C(=O)N[C@@H](Cc1ccccc1)C(=O)N[C@H](C(=O)N[C@@H](CCCCN)C(=O)N[C@@H](CCCCN)C(=O)O)[C@@H](C)O)C(C)C)[C@@H](C)O)[C@@H](C)CC)[C@@H](C)CC)C(C)C)[C@@H](C)CC)[C@@H](C)O)[C@@H](C)CC` gave a koff of 2.2 s^–1 (lipid vesicle dissociation; POPC vesicles; pH 7.5).
